Published values gathered from unrelated publications.
Lines come from different studies, so protocols differ.

SMILES | medium | concentration | pH | temperature | notes | with | CLint
Cc1nc2ccc(OCc3ccc(C(F)(F)F)cc3)cc2[nH]1 | human liver S9 | 1 µM | pH 7.4 | – | – | – | 3.1 µL/min/mg
CN1CCN(C(=O)c2ccc3cc(CCNc4ncnc5ccc(C#N)cc45)ccc3c2)CC1 | human hepatocytes, female | 2 µM | – | 37 °C | – | – | 19.8 µL/min/10⁶ cells
O=[N+]([O-])c1ccc(Nc2ncnc3ccc(-c4cccc(N5CCOCC5)c4)cc23)cc1C(F)(F)F | human liver microsomes | – | – | – | – | – | 26 µL/min/mg
CCOC(=O)C1=C(CN2CCC[C@@H]2C(=O)Nc2ccc(B(O)O)cc2)NC(c2nccs2)=N[C@H]1c1ccc(F)cc1Br | human liver microsomes | 1 µM | pH 7.4 | – | – | – | 7.4 mL/min/kg
O=C(Nc1ccc(CN2CCOCC2)c(C(F)(F)F)c1)c1ccc(C#Cc2cccc3cnccc23)cn1 | CD-1 mouse liver microsomes | 1 µM | – | – | 0.5 mg/mL microsomal protein | – | 0.104 mL/min/mg protein
CN(c1ccc(F)cc1)c1c(-c2cc(Cl)ccn2)nc2ccccn12 | rat hepatocytes | – | – | – | – | – | > 300 µL/min/10⁶ cells
Cn1cc(Nc2ncnc3ccc(-c4cccc(N5CCOCC5)c4)cc23)cn1 | human liver microsomes | – | – | – | – | – | 46 µL/min/mg
O=C1CC[C@H](N2Cc3cc(N4CCN(CC5CCN(c6ccc([C@@H]7c8ccc(O)cc8CC[C@@H]7c7ccccc7)cc6)CC5)CC4)ccc3C2=O)C(=O)N1 | SD rat liver microsomes | 1 µM | pH 7.4 | – | 0.5 mg/mL microsomal protein | – | 29 µL/min/mg
CCCC1O[C@@H]2C[C@H]3[C@@H]4CCC5=CC(=O)C=C[C@]5(C)[C@H]4[C@@H](O)C[C@]3(C)[C@]2(C(=O)CO)O1 (stereo partly shown) | EpiIntestinal microtissues | 10 µM | pH 6.5 | – | – | – | 1.14 µL/min/mg
CN1CCN(c2cccc(-c3ccc4ncnc(Nc5ccc([N+](=O)[O-])c(C(F)(F)F)c5)c4c3)c2)CC1 | human liver microsomes | – | – | – | – | – | < 3 µL/min/mg
Nc1nccc(-n2cc(C(=O)NC3CCNCC3)c3ccc(C#CC4(O)CCCCC4)cc32)n1 | human liver microsomes | 1 µM | pH 7.4 | – | – | – | < 9.6 µL/min/mg
c1cc(-c2ccc3ncnc(Nc4ncco4)c3c2)nc(N2CCOCC2)c1 | human liver microsomes | – | – | – | – | – | 44 µL/min/mg
CCN(CC)Cc1ccc2cc(COC(=O)Nc3ccc(C(=O)NO)cc3)ccc2c1 | rat liver microsomes 0.5 mg/mL | – | pH 7.4 | 37 °C | – | NADPH | 14.9 µL/min/mg
Nc1nccc(-n2cc(C(=O)N3CCNCC3)c3ccc(C#CC4(O)CCCCC4)cc32)n1 | human liver microsomes | 1 µM | pH 7.4 | – | – | – | 20.4 µL/min/mg
CCOC(=O)C1=C(CN2CCOCC2)NC(c2nccs2)=NC1c1ccc(F)cc1Br (stereo not shown) | human liver microsomes | 1 µM | pH 7.4 | – | – | – | 69.1 mL/min/kg
Clc1cccc(Nc2ncnc3ccc(-c4cccc(N5CCOCC5)c4)cc23)c1 | human liver microsomes | – | – | – | – | – | 170 µL/min/mg
O=C1CC2(CCCC2)CC(=O)N1CCCCN1CCN(c2ncccn2)CC1 | EpiIntestinal microtissues | 10 µM | pH 6.5 | – | – | – | 0.24 µL/min/mg
C[C@@H]1COCCN1c1cccc(-c2ccc3ncnc(Nc4ncco4)c3c2)c1 | human liver microsomes | – | – | – | – | – | 120 µL/min/mg
CS(=O)(=O)c1cnc(NS(=O)(=O)c2ccc(N)cc2)nc1 | human liver microsomes | 2 µM | – | – | – | – | ~1 µL/min/mg

Some of these lines once more:
SMILES | medium | concentration | pH | temperature | notes | with | CLint
CN1CCN(c2cccc(-c3ccc4ncnc(Nc5ccc([N+](=O)[O-])c(C(F)(F)F)c5)c4c3)c2)CC1 | human liver microsomes | – | – | – | – | – | < 3 µL/min/mg
Nc1nccc(-n2cc(C(=O)NC3CCNCC3)c3ccc(C#CC4(O)CCCCC4)cc32)n1 | human liver microsomes | 1 µM | pH 7.4 | – | – | – | < 9.6 µL/min/mg
c1cc(-c2ccc3ncnc(Nc4ncco4)c3c2)nc(N2CCOCC2)c1 | human liver microsomes | – | – | – | – | – | 44 µL/min/mg
